Experimental data from different studies.
± marks the error that the study gave.
Cell line: MCF7

SMILES | test | conditions | quantity | result
CSC(=NN=C(C)c1ccc(S(=O)(=O)N2CCC(C)CC2)cc1)N(C)C | annexin V/PI | concentration not given, 72 h, at IC50 | total apoptotic cells | 16.2%
CC(C)C[C@@H](NC(=O)[C@H](C)NC(=O)CNC(=O)[C@@H](NC=O)C(C)C)C(=O)N[C@@H](C)C(=O)N[C@@H](C(=O)N[C@H](C(=O)N[C@@H](C(=O)N[C@@H](Cc1c[nH]c2ccccc12)C(=O)N[C@H](CC(C)C)C(=O)N[C@@H](Cc1c[nH]c2ccccc12)C(=O)N[C@H](CC(C)C)C(=O)N[C@@H](Cc1c[nH]c2ccccc12)C(=O)N[C@H](CC(C)C)C(=O)N[C@@H](Cc1c[nH]c2ccccc12)C(=O)NCCO)C(C)C)C(C)C)C(C)C | flow cytometry | 500 nM, 48 h | cells in S phase | 9.72 ± 0.15%
CCC(=CCc1c(O)cc2c(c1O)C(=O)CC(c1ccc(OC)c(O)c1)O2)CC (stereo not shown) | cytotoxicity, MTT | 1.255 µM, 48 h | growth inhibition | 3.55%
CC(=O)[O][Pd][c]1ccccc1-n1nc(C)cc1C.CC(=O)[O][Pd][c]1ccccc1-n1nc(C)cc1C | PI flow cytometry | 25 µM, 24 h | G1 phase cells | 27.7 ± 3.68%
CC(=NN=c1sc(C(=O)c2ccccc2)nn1-c1ccccc1)c1ccc(S(=O)(=O)N2CCC(C)CC2)cc1 | flow cytometry | 4.29 µM (IC50), 72 h | cells in G2/M phase | 31.6%
CCC(=CCc1c(O)cc2c(c1O)C(=O)CC(c1cccc(O)c1)O2)CC (stereo not shown) | cytotoxicity, MTT | 13.57 µM, 48 h | growth inhibition | 29.9%
CSC(=S)N/N=C(\C)c1ccc(S(=O)(=O)N2CCC(C)CC2)cc1 | annexin V/PI | concentration not given, 72 h, at IC50 | total apoptotic cells | 15.5%
CC[C@H]([C@H](C)c1ccc(O)cc1)[C@H](CC)c1ccc(O)cc1 | cell growth or viability, ATP luminescence | 5 days | EC50 | 1.5 nM
CCC(=CCc1c(O)cc2c(c1O)C(=O)CC(c1ccccc1O)O2)CC (stereo not shown) | cytotoxicity, MTT | 13.57 µM, 48 h | growth inhibition | 0.48%
Cc1c(COc2cc(OCc3cccc(C#N)c3)c(CNC(CO)(CO)CO)cc2Cl)cccc1-c1cccc(OCCCCCC(=O)NO)c1 | flow cytometry, PI staining | 10 µM, 48 h | G1 phase cells | 59.1%

For quick reference, copied from above:
SMILES | test | conditions | quantity | result
CC[C@H]([C@H](C)c1ccc(O)cc1)[C@H](CC)c1ccc(O)cc1 | cell growth or viability, ATP luminescence | 5 days | EC50 | 1.5 nM
